# Results collected from several papers.
# Each numbered part is a random draw from the data of one study; scales do not carry over between parts. Changes are numbered by the printed parent chain.

# Study 1 — target: CCND1, cyclin fold, Cln2 fusion (human); method: yeast growth competition, sequencing; medium: yeast; setting: strong parent motif; reference: not given; direction: higher = stronger binding
# Starting sequence: INSM1 docking peptide (human); PKAIRKLHFEDEV
Variant,normalised enrichment score
E10R,1.67
R5W,0.538
A3R,0.203
D11L,2.98
A3K,0.872
K6I,3.41

# Study 2 — target: CEBPB, bZIP domain (human); method: DHFR protein complementation; medium: yeast; reference: wild-type JUN-FOS pair; direction: higher = stronger binding
# Setting: single substitutions, most at no-binding floor
# Starting sequence: JUN, bZIP domain (human); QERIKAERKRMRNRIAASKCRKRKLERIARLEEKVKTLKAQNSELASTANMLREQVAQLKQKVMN; partner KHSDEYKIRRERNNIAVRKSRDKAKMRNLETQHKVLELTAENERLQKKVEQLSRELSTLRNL
Variant,binding fitness
V35I,-1.36 natural log
R53W,-1.22 natural log
A49M,-1.36 natural log
E54G,-1.35 natural log
I28K,-1.07 natural log

# Study 3 — method: DHFR PCA, deep sequencing; medium: yeast; added: (+)-ABA 0.032 µM; reference: wild-type fitted maximum; direction: higher = stronger binding
# Target: ABI1, truncated, D143A, DHFR fusion (Arabidopsis thaliana)
# Setting: methotrexate growth selection, single substitutions
# Starting sequence: PYL1, truncated, DHFR fusion (Arabidopsis thaliana); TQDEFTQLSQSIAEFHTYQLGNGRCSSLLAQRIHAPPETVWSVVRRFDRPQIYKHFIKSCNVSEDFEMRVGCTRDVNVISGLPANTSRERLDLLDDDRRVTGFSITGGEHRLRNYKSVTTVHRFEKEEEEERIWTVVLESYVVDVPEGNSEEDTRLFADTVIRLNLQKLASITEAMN
Variant,relative binding score [%]
V76M,8
F124P,-0.327
S11Q,25.3
V78I,44.7
E129G,55.2
K54I,-9.01
Q31N,-8.7
T119F,-4.36
R88H,50.8

# Mixed results
Molecule,target,assay,system,conditions,how to read,endpoint,result
"PhoQ, residues 284 288 289 292 302 303 AQGLTV","PhoP, residues 12 14 15 18 19 NQAHL (Escherichia coli, UniProt P23836)","Sort-seq, item: YFP reporter",E. coli,"PhoQ-PhoP variant library, added: 10 µM Mg2+","reference: high Mg2+ state, higher = stronger signaling",fold induction,0.833

# For quick reference, copied from above (study 3):
Variant,relative binding score [%]
T119F,-4.36
F124P,-0.327
